Published values pooled from the literature.
Parts stem from different laboratories: compare values within a part only.
Sequence of UniProt Q13761 (53-186, looked up): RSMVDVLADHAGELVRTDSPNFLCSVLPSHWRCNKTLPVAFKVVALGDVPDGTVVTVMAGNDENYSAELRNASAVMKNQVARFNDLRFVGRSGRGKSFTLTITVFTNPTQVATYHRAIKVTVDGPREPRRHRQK

Block 1
Cell line: HEK-293T/ACE2
Tested at: 10 µM
Time: 16 h
Baseline: vehicle
| SMILES | viability [%] |
| --- | --- |
| CN(C)CCCN1c2ccccc2Sc2ccccc21 | 101 |
| Cc1cccc(Nc2ccccc2C(=O)O)c1C | 101 |
| C[C@]12CCC(=O)C=C1[C@@H]1C[C@@H]1[C@H]1[C@@H]3[C@@H]4C[C@@H]4[C@@]4(CCC(=O)O4)[C@@]3(C)CC[C@@H]12 | 97.8 |
| CCn1cc(C(=O)O)c(=O)c2cc(F)c(N3CCNC(C)C3)c(F)c21 (stereo not drawn) | 103 |

Block 2
Target: Centromere-binding protein 1, full length, His-tagged (CBF1, Saccharomyces cerevisiae, UniProt P17106, residues 1-351)
Sequence of UniProt P17106 (whole entry, looked up): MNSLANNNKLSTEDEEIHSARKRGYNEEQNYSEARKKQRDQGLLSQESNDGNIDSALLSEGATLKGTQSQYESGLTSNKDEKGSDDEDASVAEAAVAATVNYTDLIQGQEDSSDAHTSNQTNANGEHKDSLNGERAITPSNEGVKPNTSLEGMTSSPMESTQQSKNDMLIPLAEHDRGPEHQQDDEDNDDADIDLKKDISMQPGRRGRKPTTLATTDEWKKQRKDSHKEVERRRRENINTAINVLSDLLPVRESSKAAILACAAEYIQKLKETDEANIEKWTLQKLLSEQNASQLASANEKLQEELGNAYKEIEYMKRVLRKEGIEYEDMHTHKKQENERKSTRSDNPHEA
Method: competition protein-binding microarray
Molecule type: double-stranded DNA, one strand shown
Matrix: in vitro
Tested at: 2 µM
Notes: whole 60-bp probe, lowest competitor level
With: Pho4 competitor, 0.05 µM
Reading: higher = stronger binding
| Oligonucleotide | fluorescence intensity [a.u.] |
| --- | --- |
| CTTTCCCGATCTTGTCACCCTACTTTAGCACATTTGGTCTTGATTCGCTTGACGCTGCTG | 70 |
| AAAAAAAACCGCCATCACGTAACCGTAGCTTCCACTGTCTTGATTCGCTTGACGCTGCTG | 74.5 |
| CCTGCTGAGCTCAGCCATGCGTCTTACTGCCTGGTGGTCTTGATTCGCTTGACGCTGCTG | 62.9 |
| TATAGTCAGCCTCAACATGTGGCTATGATGACCAGCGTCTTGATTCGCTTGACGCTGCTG | 87.6 |
| CTACCACCACCAACACACGTTACACCACAACAACAGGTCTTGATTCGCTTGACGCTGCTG | 116 |
| CGTTCCTGGAACAGACGCGTGGGACATTTAGCGGGGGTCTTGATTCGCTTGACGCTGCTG | 87.5 |
| AAAGCGGTAATTTGATCTGTGGGTGCAGATATCTATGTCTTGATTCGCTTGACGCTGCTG | 74.3 |
| ACATGTACCAAGTAACCTTTTCCAATAAAATTTCAAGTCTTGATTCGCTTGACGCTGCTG | 92.7 |

Block 3
Target: Replicase polyprotein 1ab, polymerase (rep, Severe acute respiratory syndrome coronavirus 2, UniProt P0DTD1)
Observed: enzyme activity
Mode: inhibitor
Tested at: 20 µM
| Structure (SMILES) | inhibition |
| --- | --- |
| COc1ccc(NS(=O)(=O)c2ccc(N)cc2)nn1 | 36.4% |
| CC1CCc2c(N3CCC(O)CC3)c(F)cc3c(=O)c(C(=O)O)cn1c23 (stereo not drawn) | -5.92% |
| C(#CCN1CCCC1)CN1CCCC1 | 0.12% |
| COc1cc2c(NC3CCN(C(C)C)CC3)nc(C3CCCCC3)nc2cc1OCCCN1CCCC1 | 9.65% |
| Cc1cn(C[C@H](N)C(=O)O)c(=O)n(Cc2ccsc2C(=O)O)c1=O | -0.4% |
| c1cc2c(c(N3CCNCC3)c1)OCCO2 | -6.77% |
| O=C(O)c1cc(=O)[nH]c(=O)[nH]1 | -5.93% |
| Cc1ccc(N(CC2=NCCN2)c2cccc(O)c2)cc1 | 9.9% |
| CC(Oc1ccc(O)cc1)(P(=O)(O)O)P(=O)(O)O | -1.43% |
| COC(=O)[C@H](Cc1ccccc1)NC(=O)[C@@H](N)CC(=O)O | -1.4% |
| c1nc(CC2CCNCC2)c[nH]1 | -5.58% |
| O=S(=O)(Oc1ccc(Cl)cc1)c1ccc(Cl)cc1 | 2.56% |
| O[C@H](CNC[C@@H](O)[C@H]1CCc2cc(F)ccc2O1)[C@@H]1CCc2cc(F)ccc2O1 | -9.83% |
| C[N+](C)(CF)CCO | -3.79% |
| CC(C)(C)c1ccc(/C=C/C(=O)Nc2ccc3c(c2)OCCO3)cc1 | -1.6% |
| CNC(=O)c1ccc(N2C(=S)N(c3cnc(C#N)c(C(F)(F)F)c3)C(=O)C23CCC3)cc1F | -3.16% |
| COc1cccc([C@H](O)C2CCN(CCc3ccc(F)cc3)CC2)c1OC | 2.52% |
| COc1cc(N)c(Cl)cc1C(=O)OCCN1CCCCC1 | 3.94% |
| O=S(=O)(NC1CCNCC1)c1cc(S(=O)(=O)c2ccccc2)ccc1C(F)(F)F | -3.78% |
| CN1C(C)(C)CCCC1(C)C | 3.18% |
| O=C(O)CN1C(=O)c2cccc3cccc(c23)C1=O | 19.5% |

Block 4
Target: RING finger protein unkempt homolog, zinc fingers 1-6, GST-SBP tag (UNK, Homo sapiens, UniProt Q9C0B0, residues 30-357)
Method: RNA Bind-n-Seq
Molecule type: RNA
Matrix: in vitro
Tested at: not given
Notes: RNA with constant flanks, ends assumed
Baseline: input RNA pool
Reading: higher = stronger binding
Construct (chain): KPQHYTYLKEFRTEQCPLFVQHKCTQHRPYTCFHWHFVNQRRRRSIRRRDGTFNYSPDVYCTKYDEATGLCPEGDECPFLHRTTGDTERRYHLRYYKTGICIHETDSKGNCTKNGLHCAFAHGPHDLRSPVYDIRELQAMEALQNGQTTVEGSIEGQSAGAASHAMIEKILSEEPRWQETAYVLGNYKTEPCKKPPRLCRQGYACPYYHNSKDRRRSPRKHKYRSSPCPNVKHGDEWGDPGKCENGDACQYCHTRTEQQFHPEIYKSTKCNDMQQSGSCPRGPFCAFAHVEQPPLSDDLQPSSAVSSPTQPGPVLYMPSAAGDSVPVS
| Oligonucleotide | bound/input enrichment |
| --- | --- |
| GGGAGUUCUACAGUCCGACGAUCCUGUUGGAUGGAUUUCCAAGGACACUUCCACAGGCAGAAGCCCUGGAUAAAGUUUAUCAGACCGACACAGUGAUAAAUCUCAACGUGCCCUUUGAGGUCAUUAAACAGCGCCUUACUGCUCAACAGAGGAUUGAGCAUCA | 0.0865 ratio |
| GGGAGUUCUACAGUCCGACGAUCAGAGCAUCAAGGGAACACCCAUCUGUCCAGGAGAAGAAGAAGUCCACCAUCUGGCAGUUCUUCCGUCGCCUCUUCAGCUCCUCAUCUAGCCCCCCUCCGGCCAAACGAUCCUACCCAUCUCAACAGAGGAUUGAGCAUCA | 0.39 ratio |
| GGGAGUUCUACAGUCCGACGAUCGUAUUGAACUUCACAGCCUUGCUCAUUGAGUACAGCUUUUCUCGGCAUCUGUACAGUUCCACCGAGCAUUUGACAACUUUAUUGGCUUCCUCUGAUAUGCAAGUGGUGCUGGCAGUCCUUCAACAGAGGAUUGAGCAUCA | 0.152 ratio |
| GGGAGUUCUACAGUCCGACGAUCACAAAGCACUUCAUCUAUUUUUACUUGGGUCAAGUUGCAAUCCUCCUCUUCAAGUCAGGCCCGGUGGCCAUGGUGAAGGUGUCAGUGGCGGCGGCAGCGAUGGCAAGCAGGCGGCGUUGCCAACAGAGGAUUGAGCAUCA | 0.335 ratio |
| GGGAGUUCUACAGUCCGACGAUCGUGGUGACUUGGGAUUUUUAACCUUAUAUAUCUUUUUCCUUUACUCAAAACAAAACAAUUUUCCGCACACUGAAAAAAAAAAAAAGCCAAAUGUUUUGUGCCUUUCUAAGGCAGCACUGUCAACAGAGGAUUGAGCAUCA | 1.36 ratio |
| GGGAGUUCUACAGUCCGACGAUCAGAGUCAAAGUUCUUCAAGAUUACACUGGCCUUAUACUCUUCCUGGAAGAGGACCACUACUCCGCCCCAGACUUUUACCAUGUCUUCAAAAAGAUGUGGAAACUGAAGCAGCAGGAGUGUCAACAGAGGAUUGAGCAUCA | 0.172 ratio |
| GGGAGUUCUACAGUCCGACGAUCGAGAACAUUAGGCUAAAUGAUUUCCGAGUUUCCAGCUAGUCCUAGAGUUCUAUAUUUCUACACCGUUGAAUUAUUUUAUCAUGCUGUUGCUGGGGAAUAUGACUAACCCUUUUGAAGCUACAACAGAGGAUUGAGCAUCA | 1.37 ratio |
| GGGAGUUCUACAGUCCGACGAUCUGCUGUACUCUUGCUGAUGGCUGCUAGAUUUUAAUUUAUUUGUUUCCCUACUUGAUAAUAUCCGUGAUUCUGAUUUCAGUUUUUCAUUUGUUUUGCUUUUGUUUUUUUCCUCAUGUAACACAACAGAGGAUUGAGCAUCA | 17.9 ratio |

Block 5
Target: Replicase polyprotein 1ab, main protease (rep, Severe acute respiratory syndrome coronavirus 2, UniProt P0DTD1)
Observed: enzyme activity
Mode: inhibitor
Tested at: 20 µM
Notes: hit confirmation, no DTT
| SMILES | inhibition |
| --- | --- |
| CC1(C)C(/C=C/C=C/C=C/C=C2\N(CCCCS(=O)(=O)[O-])c3ccc4ccccc4c3C2(C)C)=[N+](CCCCS(=O)(=O)[O-])c2ccc3ccccc3c21.[Na+] | 60% |
| O=c1cc(-c2ccc(O)cc2)oc2cc(O)cc(O)c12 | 97.5% |
| CCC[C@H](NC(=O)[C@@H]1[C@H]2CCC[C@H]2CN1C(=O)[C@@H](NC(=O)[C@@H](NC(=O)c1cnccn1)C1CCCCC1)C(C)(C)C)C(=O)C(=O)NC1CC1 | 54.5% |

Further values, each from its own experiment
| Oligonucleotide | target | assay | test system | conditions | how to read | measurement | result |
| --- | --- | --- | --- | --- | --- | --- | --- |
| GAGGCCCCACCGCAACAGCCTCCTGGCTGTTGCGGTGGGGCCTCACACTC (5mC at 8) | Runt-related transcription factor 3, Runt domain (RUNX3, Homo sapiens, UniProt Q13761, residues 53-186) | protein-binding microarray | hairpin DNA, in vitro | not given, whole hairpin DNA, median over replicate spots | baseline: not given, higher = stronger binding | median fluorescence | 6580 a.u. |

Repeated from above (block 3):
| Structure (SMILES) | inhibition |
| --- | --- |
| COc1cccc([C@H](O)C2CCN(CCc3ccc(F)cc3)CC2)c1OC | 2.52% |
| COc1cc2c(NC3CCN(C(C)C)CC3)nc(C3CCCCC3)nc2cc1OCCCN1CCCC1 | 9.65% |
| O[C@H](CNC[C@@H](O)[C@H]1CCc2cc(F)ccc2O1)[C@@H]1CCc2cc(F)ccc2O1 | -9.83% |
| O=S(=O)(Oc1ccc(Cl)cc1)c1ccc(Cl)cc1 | 2.56% |
| CN1C(C)(C)CCCC1(C)C | 3.18% |
| O=S(=O)(NC1CCNCC1)c1cc(S(=O)(=O)c2ccccc2)ccc1C(F)(F)F | -3.78% |
| COC(=O)[C@H](Cc1ccccc1)NC(=O)[C@@H](N)CC(=O)O | -1.4% |
